Experimental data from different studies.
Lines come from different studies, so protocols differ. ± marks the error that the study gave. The star is where a group is joined.
CSK: Tyrosine-protein kinase CSK (CSK, Homo sapiens, UniProt P41240)
Chain of UniProt P41240 (whole entry, looked up): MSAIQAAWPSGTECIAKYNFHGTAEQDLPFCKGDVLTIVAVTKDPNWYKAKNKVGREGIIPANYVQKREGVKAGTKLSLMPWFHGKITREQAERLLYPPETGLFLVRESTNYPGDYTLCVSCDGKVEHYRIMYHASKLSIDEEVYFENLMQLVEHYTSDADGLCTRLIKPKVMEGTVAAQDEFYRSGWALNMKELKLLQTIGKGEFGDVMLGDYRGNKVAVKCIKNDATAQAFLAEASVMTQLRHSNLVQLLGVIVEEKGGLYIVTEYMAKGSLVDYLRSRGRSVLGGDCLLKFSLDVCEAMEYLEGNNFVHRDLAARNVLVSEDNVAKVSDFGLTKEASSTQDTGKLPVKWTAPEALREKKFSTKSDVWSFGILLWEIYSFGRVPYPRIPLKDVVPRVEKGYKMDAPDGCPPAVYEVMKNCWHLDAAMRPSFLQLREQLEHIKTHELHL
Chain of UniProt Q7RX33 (whole entry, looked up): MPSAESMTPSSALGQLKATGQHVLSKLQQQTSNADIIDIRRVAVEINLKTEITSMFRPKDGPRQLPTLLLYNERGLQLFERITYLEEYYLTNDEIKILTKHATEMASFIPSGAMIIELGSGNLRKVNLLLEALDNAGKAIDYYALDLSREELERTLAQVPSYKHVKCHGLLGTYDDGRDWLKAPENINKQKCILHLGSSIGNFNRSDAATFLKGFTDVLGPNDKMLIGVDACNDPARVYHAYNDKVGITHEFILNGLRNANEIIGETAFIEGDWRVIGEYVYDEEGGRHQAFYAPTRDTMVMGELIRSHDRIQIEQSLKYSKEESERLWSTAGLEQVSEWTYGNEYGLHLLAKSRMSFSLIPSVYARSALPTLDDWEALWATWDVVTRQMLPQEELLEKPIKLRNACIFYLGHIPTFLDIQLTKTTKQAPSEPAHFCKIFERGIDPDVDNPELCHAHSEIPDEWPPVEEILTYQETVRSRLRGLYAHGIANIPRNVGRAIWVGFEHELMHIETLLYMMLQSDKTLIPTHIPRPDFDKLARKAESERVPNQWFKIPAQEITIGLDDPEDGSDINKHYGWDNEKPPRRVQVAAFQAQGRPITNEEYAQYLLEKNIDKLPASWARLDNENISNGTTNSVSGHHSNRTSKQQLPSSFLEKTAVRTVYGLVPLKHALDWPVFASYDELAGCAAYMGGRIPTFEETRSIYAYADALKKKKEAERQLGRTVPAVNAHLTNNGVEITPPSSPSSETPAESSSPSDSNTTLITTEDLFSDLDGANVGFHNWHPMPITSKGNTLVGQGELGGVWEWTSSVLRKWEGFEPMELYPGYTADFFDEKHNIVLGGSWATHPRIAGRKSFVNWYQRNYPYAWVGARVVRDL
Chain of UniProt O96013 (whole entry, looked up): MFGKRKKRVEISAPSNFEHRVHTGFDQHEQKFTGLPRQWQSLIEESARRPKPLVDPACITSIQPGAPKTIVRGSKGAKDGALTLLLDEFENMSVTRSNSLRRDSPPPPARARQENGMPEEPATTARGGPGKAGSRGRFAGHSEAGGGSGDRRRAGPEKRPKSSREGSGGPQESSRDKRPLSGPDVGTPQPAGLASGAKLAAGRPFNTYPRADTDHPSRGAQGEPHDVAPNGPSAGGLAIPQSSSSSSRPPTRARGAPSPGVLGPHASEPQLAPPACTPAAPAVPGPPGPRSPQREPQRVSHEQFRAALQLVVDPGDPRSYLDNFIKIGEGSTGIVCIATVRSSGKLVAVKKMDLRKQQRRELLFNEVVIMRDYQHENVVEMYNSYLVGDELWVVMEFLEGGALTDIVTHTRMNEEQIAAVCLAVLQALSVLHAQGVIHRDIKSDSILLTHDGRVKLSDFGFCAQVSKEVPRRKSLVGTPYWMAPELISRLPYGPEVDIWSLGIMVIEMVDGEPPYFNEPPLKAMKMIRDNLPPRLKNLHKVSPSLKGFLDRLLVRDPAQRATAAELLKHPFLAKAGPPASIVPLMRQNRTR
Chain of UniProt O60656 (whole entry, looked up): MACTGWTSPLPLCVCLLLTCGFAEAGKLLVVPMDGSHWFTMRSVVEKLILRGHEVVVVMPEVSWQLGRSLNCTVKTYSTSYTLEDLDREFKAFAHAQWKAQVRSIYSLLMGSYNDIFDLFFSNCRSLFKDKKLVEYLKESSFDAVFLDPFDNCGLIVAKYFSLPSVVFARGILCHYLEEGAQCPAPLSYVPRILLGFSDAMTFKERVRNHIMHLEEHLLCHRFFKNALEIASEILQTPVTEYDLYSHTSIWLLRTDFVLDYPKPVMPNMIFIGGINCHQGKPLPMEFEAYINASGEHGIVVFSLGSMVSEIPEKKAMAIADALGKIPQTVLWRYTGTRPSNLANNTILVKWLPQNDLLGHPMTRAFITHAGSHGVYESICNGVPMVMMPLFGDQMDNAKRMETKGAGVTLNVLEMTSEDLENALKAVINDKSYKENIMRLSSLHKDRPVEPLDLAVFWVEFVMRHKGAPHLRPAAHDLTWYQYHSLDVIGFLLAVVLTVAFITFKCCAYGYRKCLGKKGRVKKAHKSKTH
Chain of UniProt P29804 (whole entry, looked up): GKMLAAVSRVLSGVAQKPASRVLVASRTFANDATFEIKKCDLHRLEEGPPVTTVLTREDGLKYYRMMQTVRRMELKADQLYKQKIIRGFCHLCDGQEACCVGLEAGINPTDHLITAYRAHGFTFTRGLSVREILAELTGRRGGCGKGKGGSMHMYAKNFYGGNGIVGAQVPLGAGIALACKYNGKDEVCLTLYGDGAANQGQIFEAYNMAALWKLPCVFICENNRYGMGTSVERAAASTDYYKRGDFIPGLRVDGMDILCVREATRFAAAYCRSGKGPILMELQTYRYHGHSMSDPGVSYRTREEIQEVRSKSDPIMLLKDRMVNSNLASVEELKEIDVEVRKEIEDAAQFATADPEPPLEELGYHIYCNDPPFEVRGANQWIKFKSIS
Chain of UniProt O60704 (whole entry, looked up): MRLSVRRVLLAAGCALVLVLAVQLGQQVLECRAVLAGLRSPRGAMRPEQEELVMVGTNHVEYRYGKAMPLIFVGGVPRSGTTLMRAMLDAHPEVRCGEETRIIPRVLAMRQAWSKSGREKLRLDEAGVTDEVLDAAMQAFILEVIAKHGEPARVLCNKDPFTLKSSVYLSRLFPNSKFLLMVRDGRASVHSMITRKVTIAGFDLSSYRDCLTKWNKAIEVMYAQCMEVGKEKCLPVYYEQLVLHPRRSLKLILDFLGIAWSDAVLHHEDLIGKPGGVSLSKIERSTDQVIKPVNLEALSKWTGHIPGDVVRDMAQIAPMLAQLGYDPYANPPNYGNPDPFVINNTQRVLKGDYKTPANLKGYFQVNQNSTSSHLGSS
Chain of UniProt O60762 (whole entry, looked up): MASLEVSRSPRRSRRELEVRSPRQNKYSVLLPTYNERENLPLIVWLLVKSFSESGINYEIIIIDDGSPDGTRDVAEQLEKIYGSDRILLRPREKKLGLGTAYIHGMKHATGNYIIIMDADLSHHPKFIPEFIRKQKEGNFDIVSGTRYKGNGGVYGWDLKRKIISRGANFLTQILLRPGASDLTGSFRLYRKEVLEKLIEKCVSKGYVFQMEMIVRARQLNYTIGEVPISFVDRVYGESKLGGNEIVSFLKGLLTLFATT

Molecule | tested on | test | test system | setting | endpoint | result
Nc1ncnc2c1ncn2[C@@H]1O[C@H](COP(=O)(O)OP(=O)(O)OP(=O)(O)O)[C@@H](O)[C@H]1O | kinesin-II homo-20, Caenorhabditis elegans | microtubule gliding velocity, substrate | – | – | Km | 84 µM
CCOC(=O)[C@@H](N)CCSC | S-adenosylmethionine synthetase (Campylobacter jejuni) | substrate | – | pH 7.6, ambient, with: ATP co-substrate | Km | 530 ± 40 µM
CC(C)(COP(=O)(O)OP(=O)(O)OC[C@H]1O[C@@H](n2cnc3c(N)ncnc32)[C@H](O)[C@@H]1OP(=O)(O)O)[C@@H](O)C(=O)NCCC(=O)NCCSC(=O)/C=C/c1ccc(O)cc1 | 2′-hydroxylase isoform 5 Morus alba | substrate, LC-MS/MS | – | 15 min, pH 6.5 | Km | 16.5 µM
CC=O | aldehyde oxidase F13 (Pseudomonas sp. MX-058) | substrate, peroxidase-coupled H2O2 | – | pH 7.0, 30 °C, with: O2 co-substrate | Km | 4940 µM
YKKRLTVELT | PAK4 (Homo sapiens, UniProt O96013) | kinase activity, substrate | peptide | pH 7.4, 30 °C, with: ATP 20 µM | Km | 1100 µM
dolichyl phosphate | Dolichol-phosphate mannosyltransferase subunit 1, with DPM2 and DPM3 (Homo sapiens, UniProt O60762) | mannose transfer, substrate | fibroblast membrane fraction | control cells, with: GDP-[3H]mannose 5 µM | Km | 55.6 µM
CC(=O)C(=O)O | pyruvate dehydrogenase complex (Sus scrofa, UniProt F1SGH5+P29804) | enzyme activity, substrate, 14CO2 release | – | – | Km | 23000 µM
Mca-PLGL-Dpa-AR-NH2 | MMP14 (Homo sapiens, UniProt P50281) | substrate, FRET peptide cleavage | – | pH 8.0, 37 °C | Km | 2.14 ± 0.15 µM
DDEPIYIEFDAHN | CSK | substrate, enzyme-coupled | peptide | pH 7.4, room temperature, with: ATP 1 mM, MnCl2 5 mM | Km | 190 ± 19 µM
O=CC=O | aldehyde oxidase F13 (Pseudomonas sp. MX-058) | substrate, peroxidase-coupled H2O2 | – | pH 7.0, 30 °C, with: O2 co-substrate | Km | 22800 µM
VTDYYYPDI | Protein-tyrosine sulfotransferase 2 (Homo sapiens, UniProt O60704) | sulfation, substrate, LC-MS | peptide | pH 7.5, 30 °C | Km | 23.9 µM
Ac-DDEPIYAELADIT-NH2 (N-acetyl, C-amide) | CSK | substrate, enzyme-coupled | peptide | pH 7.4, room temperature, with: ATP 1 mM, MnCl2 5 mM | Km | 120 ± 22 µM
UGT1A9 (Homo sapiens, UniProt O60656) | COc1ccccc1-c1cc(=O)c2ccc(O)cc2o1 | steady-state kinetics | – | pH 7.4, 37 °C | Vmax | 0.00223 µmol/min/mg
O=c1c(O)c(-c2ccc(O)c(O)c2)oc2cc(O)cc(O)c12 | Cu-pirin-like protein (Stutzerimonas stutzeri) | flavonol dioxygenase activity, substrate | – | pH 7.5, 25 °C, 5% DMSO | Km | 13 µM
Ac-LDEVD-pNA (N-acetyl, C-pNA; pNA = O=[N+]([O-])c1ccc(N*)cc1) | Caspase-3 (CASP3, Homo sapiens, UniProt P42574) | substrate hydrolysis, substrate, colorimetric | – | pH 7.5 | Km | 28 ± 1 µM
N[C@@H](CS)C(=O)O | Ergothioneine biosynthesis protein 1 (egt-1, Neurospora crassa, UniProt Q7RX33) | enzyme activity, substrate | – | – | Km | 603 ± 40 µM

A few entries again:
Molecule | tested on | test | test system | setting | endpoint | result
CC(C)(COP(=O)(O)OP(=O)(O)OC[C@H]1O[C@@H](n2cnc3c(N)ncnc32)[C@H](O)[C@@H]1OP(=O)(O)O)[C@@H](O)C(=O)NCCC(=O)NCCSC(=O)/C=C/c1ccc(O)cc1 | 2′-hydroxylase isoform 5 Morus alba | substrate, LC-MS/MS | – | 15 min, pH 6.5 | Km | 16.5 µM
